Experimental data collected from several papers.
Compare with care: the assays were run in different laboratories. “And” joins repeats or separate records; there may be more than shown. ± gives the spread as reported. In brackets after ≈: the same amount, converted by molar mass.
Sequence of UniProt O75608 (whole entry, looked up): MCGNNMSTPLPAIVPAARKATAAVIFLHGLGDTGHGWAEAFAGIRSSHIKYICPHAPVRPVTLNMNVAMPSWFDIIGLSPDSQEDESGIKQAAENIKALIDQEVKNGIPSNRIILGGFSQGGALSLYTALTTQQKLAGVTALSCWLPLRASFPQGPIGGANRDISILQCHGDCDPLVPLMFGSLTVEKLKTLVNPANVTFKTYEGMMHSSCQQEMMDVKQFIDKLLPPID
Sequence of UniProt Q9HC35 (whole entry, looked up): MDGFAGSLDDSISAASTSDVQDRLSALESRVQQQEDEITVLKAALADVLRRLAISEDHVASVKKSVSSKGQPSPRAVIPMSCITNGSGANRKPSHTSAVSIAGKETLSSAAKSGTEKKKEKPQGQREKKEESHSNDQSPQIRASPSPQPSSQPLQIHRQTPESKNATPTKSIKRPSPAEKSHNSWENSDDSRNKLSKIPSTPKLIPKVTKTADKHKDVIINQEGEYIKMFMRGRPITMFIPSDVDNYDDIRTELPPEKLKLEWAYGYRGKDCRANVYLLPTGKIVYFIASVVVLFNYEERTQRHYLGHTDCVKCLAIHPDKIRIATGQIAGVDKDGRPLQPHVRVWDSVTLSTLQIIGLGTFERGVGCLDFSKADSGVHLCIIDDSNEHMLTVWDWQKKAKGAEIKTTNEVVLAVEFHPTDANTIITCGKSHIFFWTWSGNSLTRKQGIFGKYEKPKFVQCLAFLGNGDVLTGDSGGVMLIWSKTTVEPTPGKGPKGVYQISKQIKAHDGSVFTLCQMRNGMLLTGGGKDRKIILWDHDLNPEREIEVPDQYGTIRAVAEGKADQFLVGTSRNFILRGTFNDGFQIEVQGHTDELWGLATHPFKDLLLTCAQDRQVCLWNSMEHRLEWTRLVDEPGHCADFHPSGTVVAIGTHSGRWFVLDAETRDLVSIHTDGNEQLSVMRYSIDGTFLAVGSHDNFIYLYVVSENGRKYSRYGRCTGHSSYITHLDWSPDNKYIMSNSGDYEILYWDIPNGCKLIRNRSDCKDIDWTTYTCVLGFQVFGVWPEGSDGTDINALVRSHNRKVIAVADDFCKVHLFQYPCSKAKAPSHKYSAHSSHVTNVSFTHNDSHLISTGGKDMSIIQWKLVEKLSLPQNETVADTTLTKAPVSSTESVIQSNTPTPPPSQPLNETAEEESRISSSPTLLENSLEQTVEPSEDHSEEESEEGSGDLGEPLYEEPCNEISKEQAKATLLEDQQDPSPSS
Sequence of UniProt Q8IVH8 (whole entry, unmodified, looked up): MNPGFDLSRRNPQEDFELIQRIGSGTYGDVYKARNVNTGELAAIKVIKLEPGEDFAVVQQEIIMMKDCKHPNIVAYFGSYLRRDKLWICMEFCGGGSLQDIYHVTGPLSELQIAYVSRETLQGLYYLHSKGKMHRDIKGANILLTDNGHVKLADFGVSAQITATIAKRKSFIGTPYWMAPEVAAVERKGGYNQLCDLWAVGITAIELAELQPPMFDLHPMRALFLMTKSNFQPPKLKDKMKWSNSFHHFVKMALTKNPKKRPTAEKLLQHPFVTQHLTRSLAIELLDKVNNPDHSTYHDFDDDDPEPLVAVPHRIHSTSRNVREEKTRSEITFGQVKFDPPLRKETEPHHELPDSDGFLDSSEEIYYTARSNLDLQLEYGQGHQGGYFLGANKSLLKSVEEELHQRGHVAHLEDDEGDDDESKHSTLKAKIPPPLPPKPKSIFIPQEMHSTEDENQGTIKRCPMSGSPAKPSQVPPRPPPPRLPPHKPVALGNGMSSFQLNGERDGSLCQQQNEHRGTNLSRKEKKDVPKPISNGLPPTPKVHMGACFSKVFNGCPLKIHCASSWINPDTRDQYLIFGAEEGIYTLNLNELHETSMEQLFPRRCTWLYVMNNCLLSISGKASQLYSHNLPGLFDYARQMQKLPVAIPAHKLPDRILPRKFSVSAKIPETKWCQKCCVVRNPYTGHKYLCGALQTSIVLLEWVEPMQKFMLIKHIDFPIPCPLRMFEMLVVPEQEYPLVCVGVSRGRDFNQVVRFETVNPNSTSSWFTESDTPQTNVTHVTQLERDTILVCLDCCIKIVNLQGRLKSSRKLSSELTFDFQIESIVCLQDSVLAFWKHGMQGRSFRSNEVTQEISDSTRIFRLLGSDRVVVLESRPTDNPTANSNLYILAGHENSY
Sequence of UniProt Q9UKP6 (whole entry, looked up): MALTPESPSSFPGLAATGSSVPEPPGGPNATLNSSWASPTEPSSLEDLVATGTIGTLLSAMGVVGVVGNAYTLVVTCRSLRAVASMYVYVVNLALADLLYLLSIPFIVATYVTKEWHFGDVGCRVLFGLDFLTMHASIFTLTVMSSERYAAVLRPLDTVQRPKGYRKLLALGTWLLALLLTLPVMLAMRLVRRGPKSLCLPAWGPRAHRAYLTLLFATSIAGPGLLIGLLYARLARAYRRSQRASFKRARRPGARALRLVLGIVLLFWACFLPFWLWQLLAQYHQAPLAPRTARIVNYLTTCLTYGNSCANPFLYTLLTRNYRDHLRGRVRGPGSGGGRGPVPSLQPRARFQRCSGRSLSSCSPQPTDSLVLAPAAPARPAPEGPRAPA
Sequence of UniProt Q9NTG7 (whole entry, looked up): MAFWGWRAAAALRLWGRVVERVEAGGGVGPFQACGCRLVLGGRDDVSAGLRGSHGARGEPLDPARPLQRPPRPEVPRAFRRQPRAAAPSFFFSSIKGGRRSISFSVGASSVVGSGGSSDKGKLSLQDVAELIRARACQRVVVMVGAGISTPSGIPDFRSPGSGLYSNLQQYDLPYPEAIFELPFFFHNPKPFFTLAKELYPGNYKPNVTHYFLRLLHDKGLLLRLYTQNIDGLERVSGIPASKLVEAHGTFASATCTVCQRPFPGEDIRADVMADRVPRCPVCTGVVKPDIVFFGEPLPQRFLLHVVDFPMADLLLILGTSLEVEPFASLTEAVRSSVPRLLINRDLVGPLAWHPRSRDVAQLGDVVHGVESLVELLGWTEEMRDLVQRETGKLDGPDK

For `O=C(O)/C=C/C(=O)O.Oc1cccc2[nH]cc(CCNC3CCCCC3)c12`, the distance travelled was 2280 ± 208 cm (C57BL/6J mice; subcutaneous, 0.1 mg/kg, 30 min).
Under “normalized viral replication”, `O=c1ccn([C@@H]2O[C@](F)(CO)[C@@H](O)[C@H]2O)c(=O)[nH]1` is recorded as 0.49 and 0.76 and 0.64 (human respiratory syncytial virus; recombinant reporter virus; concentration not given, scale 0 to 100, with: adenosine 3.7 µM).
`CCCCCCCCCCCC[N+](C)(C)CCCCCCCCCC[N+](C)(C)CCCCCCCCCCCC.[Br-].[Br-]` — result for “HA titre reduction”: 2.5 ± 0.5 log units (influenza A virus A/PR/8/34 (H1N1); concentration not given, post-treatment).
`O=C(O)/C=C/C(=O)O.Oc1cccc2[nH]cc(CCNCc3ccccc3)c12` — result for “head twitch count”: 6.3 ± 1.1 (C57BL/6J mice; subcutaneous, 0.03 mg/kg).
`CCCCCCCCCCCCCCCC[N+](C)(C)CCCCCCCCCC[N+](C)(C)CCCCCCCCCCCCCCCC.[Br-].[Br-]` gave a protection of 77.2 ± 5.2% (influenza A virus A/PR/8/34 (H1N1); concentration not given, co-treatment).
For `COc1ccc(N2C(=O)N(c3c(C)cccc3Cl)Cc3cnc(Nc4ccc(C5CCN(C)CC5)cc4OC)nc32)nc1`, the inhibition was 83% (MAP4K3 (Homo sapiens, UniProt Q8IVH8); kinase activity; 0.5 µM).
The LC50 of `COc1cc(CCC[P+](c2ccccc2)(c2ccccc2)c2ccccc2)c(OC)c2c1OCO2.[I-]` is reported as > -4 log M (NCI-H322M; SRB).
For `CC(CCCN(CCCl)CCCl)Nc1ccnc2cc(Cl)ccc12.O=C(O)c1cc2ccccc2c(Cc2c(O)c(C(=O)O)cc3ccccc23)c1O`, the inhibition was 10.3 ± 4.1% (West Nile virus; viral replication, Rluc reporter replicon; Vero WNV replicon cells; 50 µM, 24 h).
The CC50 of `CN1CCN(C2(CNC3CCN(c4cccc(-c5cc6cc(F)ccc6[nH]5)c4)CC3)CCC2)CC1` is reported as 6.2 µM (NCI-H23).
`CC[C@H](C)[C@H](NC(=O)[C@H](C)NC(=O)[C@H](CCCCN)NC(=O)[C@H](CC(C)C)NC(=O)[C@H](C)NC(=O)[C@@H](NC(=O)[C@H](Cc1c[nH]cn1)NC(=O)[C@H](CC(C)C)NC(=O)[C@@H](NC(=O)[C@@H](NC(=O)[C@H](CCCCN)NC(=O)[C@H](C)NC(=O)[C@H](C)NC(=O)[C@H](CO)NC(=O)[C@H](CCCCN)NC(=O)[C@H](Cc1ccccc1)NC(=O)[C@@H](NC(=O)[C@H](CCCCN)NC(=O)[C@H](CC(C)C)NC(=O)[C@H](Cc1ccccc1)NC(=O)[C@H](CO)NC(=O)[C@H](CCCCN)NC(=O)[C@H](Cc1c[nH]c2ccccc12)NC(=O)[C@H](CCCCN)NC(C)=O)[C@@H](C)O)[C@@H](C)O)C(C)C)[C@@H](C)O)C(=O)N[C@@H](CO)C(=O)N[C@@H](CO)C(N)=O` has an MBC90 of 32 mg/L (≈ 10.9 µM) (Enterococcus faecalis; ATCC 29212).
For `CC(C)(C)NCCc1c[nH]c2cccc(O)c12.CC(C)(C)NCCc1c[nH]c2cccc(O)c12.O=C(O)/C=C/C(=O)O`, the distance travelled was 2500 ± 343 cm (C57BL/6J mice; subcutaneous, 0.03 mg/kg, 30 min).
`COc1cc(Nc2ncc(F)c(Nc3ccc4c(n3)NC(=O)C(C)(C)O4)n2)cc(OC)c1OC` gave an IC50 of > 10 µM (SIRT3 (Homo sapiens, UniProt Q9NTG7)).
`CCCCCCCCCCCCCCCC[N+](C)(C)Cc1ccc(C[N+](C)(C)CCCCCCCCCCCCCCCC)cc1.[Br-].[Br-]` — result for “HA titre reduction”: 1.5 ± 0.5 log units (influenza A virus A/PR/8/34 (H1N1); concentration not given, co-treatment).
`CN1CCN(c2cc(-c3ccncc3)c(-c3ccc4ccccc4c3)nn2)CC1` gave an inhibition of 11.7% (UTS2R (Homo sapiens, UniProt Q9UKP6); antagonist, FLIPR; 10 µM).
`COc1cc2c(Oc3ccc4[nH]c(C)cc4c3F)ccnc2cc1OCC1(N)CC1`: “grade 3 Hyperuricemia” 0% (paediatric recurrent refractory sarcoma; 8 mg/kg).
The AST/ALT ratio of `C[C@H]1O[C@@H](O[C@H]2CC[C@@]3(C)[C@@H](CC[C@]4(C)[C@@H]3C=C[C@]35OC[C@@]6(CCC(C)(C)C[C@H]63)[C@@H](O)C[C@]54C)[C@]2(C)CO)[C@H](O)[C@@H](O[C@@H]2O[C@H](CO)[C@@H](O)[C@H](O)[C@H]2O)[C@H]1O` is reported as 1.18 and 1.99 and 2.23 and 2.12 (mouse, pair-fed, AAV8-TBG-Null, plasma; dose not given, high dose).
The tumour uptake of `CC(C)C[C@@H]1NC(=O)[C@H](CC(C)C)NC(=O)[C@H](Cc2c[nH]c3ccccc23)NC(=O)[C@H](CO)NC(=O)[C@H](Cc2c[nH]c3ccccc23)NC(=O)[C@@H]2CCCN2C(=O)[C@H](CC(C)C)NC(=O)[C@H](Cc2c[nH]cn2)NC(=O)[C@@H]2CCCN2C(=O)[C@H](CC(N)=O)NC(=O)[C@H](C)NC(=O)[C@H](Cc2ccc(O)cc2)NC(=O)[C@H](CS)NC(=O)[C@H](CCCCNC(=O)CN2CCN(CC(=O)O)CCN(CC(=O)O)CCN(CC(=O)O)CC2)NC1=O` [lutetium-177 labelled] is reported as 5.74 ± 1 %ID (BALB/c mice female 4T1 tumour, 4T1 tumour; intravenous, 3.7 MBq, 24 h, unblocked).
`C[C@@H](O)[C@@H](CO)NC(=O)[C@@H](CCCNC(=N)N)NC(=O)[C@@H]1CCCN1C(=O)[C@@H]1CSSC[C@H](NC(=O)[C@H](Cc2ccccc2)NC(=O)CN2CCN(CC(=O)O)CCN(CC(=O)O)CCN(CC(=O)O)CC2)C(=O)N[C@@H](Cc2ccc(O)cc2)C(=O)N[C@@H](Cc2ccccc2)C(=O)N[C@@H](CCC(N)=O)C(=O)N[C@@H](CC(N)=O)C(=O)N1` [gallium-68 labelled] has a tissue uptake of 0.05 %ID/g (healthy Wistar rat, brain; intravenous, 8 MBq, 60 min, individual animals).
For `CCCCC1(CCCC)CN(c2ccccc2)c2cc(SC)c(OCC(=O)N[C@@H](C(=O)NCC(=O)O)c3ccccc3)cc2S(=O)(=O)C1`, the serum LDL-C was 97.4 mg/dL (measured: LDL cholesterol; human, serum; 5 mg once daily, day 13).
With `N=C(N)NCCC[C@@H]1NC(=O)[C@H](CCCCNC(=O)c2ccc(CNC34CNCCNCC(N)(CNCCNC3)CNCCNC4)cc2)NC(=O)[C@@H](Cc2ccc(O)cc2)NC(=O)[C@H](CC(=O)O)NC(=O)CNC1=O` [copper-64 labelled] the tumour uptake was 0.5 ± 0.07 %ID/g (microPET imaging; athymic nude mice, male, PC-3 xenograft, PC-3 tumour; intravenous, 0.2 nmol, 7.4 MBq, 48 h).
For `O=C(c1ccc(Cl)cc1)N1CCN2C(=O)N(OC(=O)N3CCOc4ccccc43)C(=O)C2C1` (stereo not drawn), the peptide ratio was 0.83 and 0.99 and 1.01 and 0.98 (Acyl-protein thioesterase 1 (Homo sapiens, UniProt O75608); MS-based ABPP; SW-620 conditioned medium; 10 µM, 1 h, 37 °C; relative to: compound over DMSO, lower = more inhibition).
With `C[C@H]1CN(c2n[nH]c3nc(N[C@H]4CC[C@H](NS(=O)(=O)CCC(F)(F)F)CC4)ncc23)CCO1` the remaining binding was 1.1 (Echinoderm microtubule-associated protein-like 4 (Homo sapiens, UniProt Q9HC35); Kinobeads competition, measured: EML4; 20 µM, unit not given; relative to: vehicle).
`O=C1c2c(O)c(=O)ccn2N([C@@H]2c3ccccc3SCc3c2ccc(F)c3F)[C@@H]2COCCN12` has a plasma concentration of 0.139 µg/mL (BALB/c mice, plasma; oral, 15 mg/kg baloxavir marboxil, 1 h).
With `Cc1ccccc1NC(=O)Nc1ccc(CC(=O)N[C@@H](CCCCNC(=O)/C=C/c2cccnc2)C(=O)N[C@@H](CCCC(=O)O)C(=O)NC2(C(=O)NCCOCCOCCOCCOCC(=O)N[C@@H](CCCCNC(=S)Nc3ccc(CCCN(CCN4CCN(CP(=O)(O)O)CCN(CP(=O)(O)O)CC4)CC(=O)O)cc3)C(N)=O)CCCCC2)cc1` [gallium-68 labelled] the tumour uptake was 15.2 ± 2.8 %ID/g (mice with B16-F10 tumour, tumour; intravenous, 4 h).
The distance travelled of `CCNCCc1c[nH]c2cccc(O)c12.CCNCCc1c[nH]c2cccc(O)c12.O=C(O)CCC(=O)O` is reported as 2400 ± 291 cm (C57BL/6J mice; subcutaneous, 0.3 mg/kg, 30 min session).
Under “maximum possible effect”, `C=CCN1CC[C@]23c4c5ccc(O)c4O[C@H]2C(=O)CC[C@@]3(O)[C@H]1C5` is recorded as 5.34% and 9.51% and -22.3% and -1.86% and 8.54% and -9.33% (antinociception, hot plate; male ICR-CD1 mice; subcutaneous, 5 mg/kg, 45 min).
`O=C(Cc1cc(C(F)(F)F)cc(C(F)(F)F)c1)NC1CCOC1=O` (stereo not drawn) gave an activation of 15% (ExpR2 (Pectobacterium carotovorum); cellulase activity, agonist; Pectobacterium carotovorum, single-ExpR2 strain; 200 µM, 4 h; relative to: OHHL).
`COc1c(CCC[P+](c2ccccc2)(c2ccccc2)c2ccccc2)cc2c(c1OC)OCO2.[I-]` has a Log10GI50 of -5.62 log M (LOX IMVI; SRB).
For `CN1CCN(S(=O)(=O)c2cc([N+](=O)[O-])ccc2N(CCOS(C)(=O)=O)CCOS(C)(=O)=O)CC1`, “EFS ratio (T/C)” read 4.3 (NSG mice, sample BB PDX; intraperitoneal, 25 mg/kg weekly x3; relative to: treated over vehicle).
`C=CCNCCc1c[nH]c2cccc(O)c12.C=CCNCCc1c[nH]c2cccc(O)c12.O=C(O)/C=C/C(=O)O`: “head twitch count” 15.3 ± 2.6 (C57BL/6J mice; subcutaneous, 0.3 mg/kg).
The tumour volume of `N.N.[Cl][Pt][Cl]` is reported as 240 mm3 (SAS xenograft, KSN/Slc nude mice; dose not given, day 10, group mean).
`CC(C)NCCc1c[nH]c2cccc(O)c12.O=C(O)/C=C/C(=O)O`: “head twitch count” 10 ± 1.6 (C57BL/6J mice; subcutaneous, 1 mg/kg).
`CC[C@H](C)[C@@H]1NC(=O)[C@@H]2CCCN2C(=O)[C@H](CC(C)C)NC(=O)[C@H](CC(C)C)NC(=O)CNC(=O)[C@@H](NC(=O)[C@@H](NC(=O)[C@H](CC(=O)O)NC(=O)CNC(=O)[C@@H](NC(=O)[C@H](C)NC(=O)CNC(=O)[C@H](CCCCN)NC(=O)[C@H](CC(C)C)NC(=O)[C@H](CC(C)C)NC(=O)[C@H](CCCCN)NC(=O)CNC(=O)[C@@H](NC(=O)[C@@H](N)CC(C)C)C(C)C)C(C)C)C(C)C)CSSC[C@@H](C(=O)O)NC1=O`: “log2 fold change” -2.36 (RNA-seq, measured: C5ar1 mRNA; mouse traumatic brain injury, frontal cortex and hippocampus; dose not given; relative to: TBI plus compound vs TBI).
For `CCCCCCCCCCCC[N+](C)(C)CCCCCC[N+](C)(C)CCCCCCCCCCCC.[Br-].[Br-]`, the protection was 56.1 ± 1.9% (influenza A virus A/PR/8/34 (H1N1); concentration not given, post-treatment).
For `CCCCNCCc1c[nH]c2cccc(O)c12.O=C(O)/C=C/C(=O)O`, “head twitch count” read 7.3 ± 1.2 (C57BL/6J mice; subcutaneous, 3 mg/kg).
`CC[C@H](C)[C@H](NC(=O)[C@H](Cc1ccccc1)NC(=O)[C@H](CCC(=O)O)NC(=O)[C@H](CCCNC(=N)N)NC(=O)[C@H](C)NC(=O)[C@H](C)NC(=O)[C@H](CCC(N)=O)NC(=O)[C@H](CCC(=O)O)NC(=O)[C@H](CCC(=O)O)NC(=O)[C@H](CC(C)C)NC(=O)[C@H](Cc1ccc(O)cc1)NC(=O)[C@H](CO)NC(=O)[C@H](CO)NC(=O)[C@@H](NC(=O)[C@H](CC(=O)O)NC(=O)[C@H](CO)NC(=O)[C@@H](NC(=O)[C@H](Cc1ccccc1)NC(=O)[C@@H](NC(=O)CNC(=O)[C@H](CCC(=O)O)NC(=O)[C@H](C)NC(=O)CCc1c[nH]cn1)[C@@H](C)O)[C@@H](C)O)C(C)C)C(=O)N[C@@H](C)C(=O)N[C@@H](Cc1c[nH]c2ccccc12)C(=O)N[C@@H](CC(C)C)C(=O)N[C@H](C(=O)N[C@@H](CCCNC(=N)N)C(=O)NCC(=O)N[C@@H](CCCNC(=N)N)C(=O)N[C@@H](CCCCNC(=O)COCCOCCNC(=O)COCCOCCNC(=O)CC[C@H](NC(=O)CCCCCCCCCCCCCCCCC(=O)O)C(=O)O)C(=O)NCC(=O)NCC(=O)N[C@@H](CO)C(=O)N[C@@H](CCCCNc1c(NCCCCCN(O)C(=O)CCC(=O)NCCCCCN(O)C(=O)CCC(=O)NCCCCCN(O)C(C)=O)c(=O)c1=O)C(=O)O)C(C)C` [zirconium-89 labelled] has a tissue uptake of 0.3 %ID/g (ex vivo gamma counting; rat, spleen; subcutaneous, 3 nmol/kg, 168 h, with: [89Zr]-labelled peptide).
